Measurements of several laboratories.
Protocols differ between the studies behind these lines. Several values in a cell are separate wells, animals, samples, runs or records. Numbers after ± are the reported error.

For CCOCc1nc(O)c(-c2nnc(Cc3ccc(Cl)cn3)o2)c(O)c1-c1c(OC)cccc1OC, the plasma concentration was 0.034 µM (rat, anaesthetised, cannulated, plasma; intravenous infusion, 1 µg/kg/min, 30 min after infusion stop, washout).
For O=C(O)C(O)CO (stereo not shown), “log2 fold change” read 0.0331 (binding, MIDAS equilibrium dialysis LC-MS; A2AR-BRIL thermostabilized; concentration not given; relative to: no-protein control).
C[C@@H](O)[C@H]1C(=O)N2C(C(=O)O)=C(S[C@@H]3CN[C@H](C(=O)N(C)C)C3)[C@H](C)[C@H]12 has a plasma concentration of 3860 ng/mL (BALB/c mouse, male, plasma; intraperitoneal, 100 mg/kg, 8 h).
For Cc1c(C(=O)O)ccc2c3n(nc12)[C@@H]1[C@H](C3)N(CC2CC2)[C@@]2(C(=O)Nc3cc(Cl)ccc32)[C@H]1c1cccc(Cl)c1F, the plasma concentration was 0.427 µM (female BALB/c nude mice, SJSA-1 xenograft, plasma; oral, 2 mg/kg once daily, 31 h).
CCCCCN1C[C@H](O)[C@@H](O)[C@H](O)[C@@H]1CO gave a plasma concentration of 3170 ng/mL (LC-MS/MS; mouse Hexb-/- female, plasma; 300 mg/kg/day, geometric mean).
With CNCCOC12CC3(C)CC(C)(CC(Cn4ncc(-c5ccc(N6CCc7cccc(C(=O)Nc8nc9ccccc9s8)c7C6)nc5C(=O)O)c4C)(C3)C1)C2 the plasma concentration was 36 ± 0.5 ng/mL (anaesthetised male beagle dogs; intravenous bolus, 0.03 mg/kg, 10 min).
For CC(C)(C)c1cc(NC(=O)Nc2ccc(Oc3ccnc4[nH]c(=O)cnc34)cc2F)n(-c2ccccc2)n1, the plasma concentration was 26.1 µM and 25.4 µM and 29.9 µM and 20.8 µM and 27.7 µM (NSG mouse, female, plasma; oral, 20 mg/kg, 1 h after last dose).
With Cc1cc([C@H]2C[C@H]3[C@@H](CF)SC(N)=N[C@@]3(c3ccc(F)cc3F)CO2)on1 the plasma concentration was 14.3 µM (male 129/SVE mouse, plasma; subcutaneous, 100 mg/kg, 1 h).
Cc1cc2nc3c(=O)[nH]c(=O)nc-3n(C[C@H](O)[C@H](O)[C@H](O)COP(=O)(O)OP(=O)(O)OC[C@H]3O[C@@H](n4cnc5c(N)ncnc54)[C@H](O)[C@@H]3O)c2cc1C — result for “log2 fold change”: -0.277 (binding, MIDAS equilibrium dialysis LC-MS; A2AR-BRIL thermostabilized; concentration not given; relative to: no-protein control).
With COc1cccc(-c2n[nH]c(SCc3ccccn3)n2)c1OC the plasma concentration was 3160 ng/mL (Sprague-Dawley rats, both sexes; oral dietary, 30 mg/kg/day, day 90, 6 h).

A few entries again:
For Cc1c(C(=O)O)ccc2c3n(nc12)[C@@H]1[C@H](C3)N(CC2CC2)[C@@]2(C(=O)Nc3cc(Cl)ccc32)[C@H]1c1cccc(Cl)c1F, the plasma concentration was 0.427 µM (female BALB/c nude mice, SJSA-1 xenograft, plasma; oral, 2 mg/kg once daily, 31 h).
